Results collected from several papers.
A part holds a random share of what one study measured.

Study 1 — method: competition protein-binding microarray; molecule type: double-stranded DNA, one strand shown; medium: in vitro; concentration: 2 µM; added: Cbf1 competitor, 0.05 µM; direction: higher = stronger binding; quantity: fluorescence intensity
Target: Phosphate system positive regulatory protein PHO4, full length, GST-tagged (PHO4, Saccharomyces cerevisiae, UniProt P07270, residues 1-312)
Setting: whole 60-bp probe, lowest competitor level
Target sequence (chain): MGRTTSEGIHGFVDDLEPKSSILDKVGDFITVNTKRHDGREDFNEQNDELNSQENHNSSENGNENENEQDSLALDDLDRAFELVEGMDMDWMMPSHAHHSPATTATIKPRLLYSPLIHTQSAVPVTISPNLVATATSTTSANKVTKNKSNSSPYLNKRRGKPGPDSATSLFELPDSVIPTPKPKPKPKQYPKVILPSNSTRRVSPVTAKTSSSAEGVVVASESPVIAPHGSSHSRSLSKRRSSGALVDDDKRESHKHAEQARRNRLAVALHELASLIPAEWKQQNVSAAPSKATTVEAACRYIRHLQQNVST
AAAGCGGTAATTTGTCACTAGACTTCACATATCTATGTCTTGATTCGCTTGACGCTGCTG: 3500 a.u.
TGCGCAACAACTTGAGCAGTGGGTGTATGTCTAGAAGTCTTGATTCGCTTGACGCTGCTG: 4830 a.u.
GGCAACCAAGTAAACTGCGTGGGTATCTTCAAGTCGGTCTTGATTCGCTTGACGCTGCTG: 7650 a.u.
GTCTTGTCTCATTGTCAGGTGGGTGTCCCCACTTCAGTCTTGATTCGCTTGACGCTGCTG: 5720 a.u.
TAGCAACGGAGAAAGCACGCTTGTAGAACCAACCTTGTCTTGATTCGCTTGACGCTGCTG: 7610 a.u.
CTTTCCCGATCTTGTCCAGTGGGTGTAGCACATTTGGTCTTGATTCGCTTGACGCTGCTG: 4510 a.u.
GGTTTCTGAGGCTCGCACAGGAGGCACCCCAGTTCTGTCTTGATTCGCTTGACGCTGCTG: 4700 a.u.
TGGACGCAATTGGTTGGTGTGACGCCACTTTCTCTTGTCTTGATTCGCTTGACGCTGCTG: 3310 a.u.
GTCTTGTCTCATTGGTAGGTGGGTGTCCCCACTTCAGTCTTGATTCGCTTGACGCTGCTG: 5190 a.u.
AAATTACTAAGTTGTCACCGCACTTACCCCGTATGAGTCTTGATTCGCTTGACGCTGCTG: 3680 a.u.
AAATGGAACGATAGGAACGTGTAACCTACCGCTTCTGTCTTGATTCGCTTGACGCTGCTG: 10900 a.u.
AACCGGGTTATTTTGCACGTGATGGGCACTTGGGAGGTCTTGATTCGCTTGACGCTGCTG: 14900 a.u.
CTGGCTCATATGCCACACATGTCAGTAGGTTCATAGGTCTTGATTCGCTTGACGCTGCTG: 10500 a.u.
TTTATTTATTGAATTCACGTGTTGATGTTTTTTTCAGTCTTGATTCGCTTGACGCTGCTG: 14900 a.u.
AAAGCGGTAATTTGTCTTGTGGGTGCAGATATCTATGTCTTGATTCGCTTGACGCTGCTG: 4720 a.u.
TTCGCTACAAAATAATGCGTGATGGTTTCAGTGAAGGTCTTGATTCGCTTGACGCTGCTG: 5570 a.u.
TTAATTAGCTTCTTGCATGTGCTCTTTAGCTTCGGCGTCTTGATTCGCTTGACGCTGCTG: 9930 a.u.

Study 2 — method: protein binding microarray; molecule type: double-stranded DNA, one strand shown; medium: in vitro; concentration: not given; reference: not given; direction: higher = stronger binding; quantity: E-score
Target: Histone acetyltransferase KAT6A, both winged helices, GST fusion (KAT6A, Homo sapiens, UniProt Q92794, residues 1-181)
Setting: 8-mer, flanks averaged, mean of 2 arrays, mostly near background
Residues (chain): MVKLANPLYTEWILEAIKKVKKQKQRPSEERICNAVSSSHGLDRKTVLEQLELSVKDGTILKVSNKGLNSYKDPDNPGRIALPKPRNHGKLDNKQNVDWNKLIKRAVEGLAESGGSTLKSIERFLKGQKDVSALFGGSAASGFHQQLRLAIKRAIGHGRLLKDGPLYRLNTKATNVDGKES
TAGCCACA: -0.0462
ACCTTCTG: -0.202
CAGTCAGA: 0.0396
ATCTCGAG: -0.023
ACCCCTCG: -0.12
GAAGTGTA: -0.15
AACGTCCT: -0.000115
GCTATTAC: 0.0572
ATCCCATG: -0.163
CACTTATA: -0.0235
AAAGACTG: -0.184
CAGGACAA: -0.18
CGAAAGAC: 0.00739
ATTCAGTC: 0.0929
ACCTACAA: -0.0381
ACCTTGTG: -0.081
CGAAACGC: 0.171
CAACATGA: 0.0639
AGATTGAT: 0.0193
ACGCGATA: 0.209
CAAAACTG: -0.121
CCACGACA: -0.0549
AACATGGG: -0.0337
AACTGCAT: -0.113
ATGTCTCG: -0.0486

Study 3 — method: aptamer microarray, sandwich; molecule type: DNA with 2'F-ANA; medium: in vitro; concentration: 200 nM; added: Cy3 exosite-II aptamer, 400 nM; direction: higher = stronger binding; quantity: mean fluorescence intensity; strand: GGTTGGTGTGGTTGG
Target: Prothrombin, mature alpha-thrombin (F2, Homo sapiens, UniProt P00734)
Setting: whole 15-mer aptamer, many near background
2'F-ANA at 1 4 9 10 13 14: 52 a.u.
2'F-ANA at 1 2 4 6 8 13 14 15: 50.6 a.u.
2'F-ANA at 1 2 4 5 8 9 10 11 14 15: 52.9 a.u.
2'F-ANA at 1 2 4 5 6 7 8 12 13 14 15: 107 a.u.
2'F-ANA at 2 3 6 7 12: 1060 a.u.
2'F-ANA at 1 2 7 8 9 10 15: 58.8 a.u.
2'F-ANA at 4 5 8 9 11 13 14: 43.2 a.u.
2'F-ANA at 3 4 5 6 10 11 12: 54.7 a.u.
2'F-ANA at 3 7 11 12 13 14 15: 702 a.u.
2'F-ANA at 5 9 10 11 12 13 14: 45.7 a.u.
2'F-ANA at 11 15: 487 a.u.
2'F-ANA at 1 2 3 4 5 6 7 9 12 15: 108 a.u.
2'F-ANA at 1 2 4 5 7 8 10 12 14: 49.2 a.u.
2'F-ANA at 1 2 8 10 11 12 13 15: 269 a.u.
2'F-ANA at 1 3 4 5 11 14 15: 47.4 a.u.
2'F-ANA at 3 5 8 10 13: 54.9 a.u.
2'F-ANA at 2 7 11 12 13 14 15: 169 a.u.
2'F-ANA at 3 8 9 12 15: 1280 a.u.
2'F-ANA at 1 2 5 6 7 12 13 15: 83.5 a.u.
2'F-ANA at 1 2 4 6 8 9 10 12 14 15: 159 a.u.
2'F-ANA at 2 3 4 5 8 10 11 14 15: 48.7 a.u.
2'F-ANA at 3 7 11 12: 1280 a.u.
2'F-ANA at 2 4 5 7 8 12 13 15: 99.7 a.u.
2'F-ANA at 1 4 5 7 9 11 13 14: 45.9 a.u.

Study 4 — method: RNA Bind-n-Seq; molecule type: RNA; medium: in vitro; concentration: 365 nM; reference: no-protein control; direction: higher = stronger binding; quantity: RBNS enrichment (R)
Target: RNA binding protein fox-1 homolog 2, RRM domain, GST-SBP tag (RBFOX2, Homo sapiens, UniProt O43251-10, residues 100-194)
Setting: natural RNA segment, single round, ends assumed
Residues (chain): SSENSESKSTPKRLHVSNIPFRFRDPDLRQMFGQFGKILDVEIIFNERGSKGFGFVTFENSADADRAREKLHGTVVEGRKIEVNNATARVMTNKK
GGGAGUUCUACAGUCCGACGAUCUUUGGUUUGGGUUUGUUUUUGCCUUUGAGGAAAUAAAGAGUGGGUACUUAAGGAAGGUAGUUGCAAAUACCAACUAUGGCCAUGCGAUCAGGCGCAGAAAUGAGGAUUACUGGAAUUCUCGGGUGCCAA: 1.27
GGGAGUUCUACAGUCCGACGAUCGGUCUGUGAAGCUGCUGCCCCUGAGCUGGAGGGGGGUCUCAUUCUACAAAGAGAGAGGUGGCCCCCCUUUCUUGACCUCCUCCUCCUUCAAGCUCAAACACCACCUCCCUUGGAAUUCUCGGGUGCCAA: 0.304
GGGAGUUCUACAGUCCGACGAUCAAAGUUAACUAUGUAAGAUAUUAUUUCUGAAACAAUUUAGCUAUAUCCACUAUGAUUAUAAACUGUGUCUCGACCUGUGUUAUUUACAUUAGCUGCUUAAAAAAGCAUUGUGGAAUUCUCGGGUGCCAA: 0.3
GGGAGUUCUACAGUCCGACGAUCAGCAAAAAGAAUAUCUUCUAAAGAUUUCUUUAUAUAUUUAAAAACCCACAACUAAAAAUGUAUCCACAUAGUAGUGUUCGUUUGUCGAGAGGAUUUCCUGAGACUGGUUUUGGAAUUCUCGGGUGCCAA: 0.509
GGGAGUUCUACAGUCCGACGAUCGCUGCCAUCCCCUCCCCGUUUCAGUGGACCCUGUGGCCAGGUGCUUUUCCCUAUCCACAGGGGUGUUUGUGUGUGUGCGCGUGUGCGUUUCAAUAAAGUUUGUACACUUUUGGAAUUCUCGGGUGCCAA: 1.49
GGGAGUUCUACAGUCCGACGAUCCAUUUUCCUGGUUAAGAAAUCUGUAUAAAGUUAGUGAGAUGCAUAUUCUUUAUAUAAGGUGGGCAUCAAGCAACCAGAAGUGCAAACUUCCCUCCCUUUACUUCUGUUGCUGGAAUUCUCGGGUGCCAA: 0.602
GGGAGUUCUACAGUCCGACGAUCAAAAUGGUGGCUUCAGCUCCAGCCCCUUUCCAAAAUUUUUCAACCCCACCCUGUUUGGAUUUUUAAUUAAAAACUAGUAGUUCUCUUGGUGUUAAAACACUUCUGUCCUGUGGAAUUCUCGGGUGCCAA: 0.845
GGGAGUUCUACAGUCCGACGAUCAGCCACAGACUGAGGCUUCCGGGUGAGGAACACCCUGGGGCUACUAUGUUUGUAGGUCUCAUGUGCUCAGGGCUAUGAAGUAGGCUGUGCAGGUGACAGCACCCUGCUAGUGGAAUUCUCGGGUGCCAA: 0.977
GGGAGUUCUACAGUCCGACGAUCUCCUCUGGAUUGCAGACCACAUCGCACAGACCCCUGGCUCUGACCCCCUCUCAUCCCGGAAGAAGAGGAAGAAGCAGAACAGACUAGUUUUGAGUAAACUCAGUAUGCAUUGGAAUUCUCGGGUGCCAA: 0.789
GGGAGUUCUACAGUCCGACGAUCGUAAUUUAGCUGAGAGAAUUCUUUUUCCCAACAGUGAAACAAGUGGGCCUCCUAGAAACUUUAUUGCAGAGAUGACUGGAGGCCAUUGGUGUUUCCAGGAGAGCUAGCAUUGGAAUUCUCGGGUGCCAA: 2.9
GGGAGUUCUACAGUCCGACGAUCUGAAAACAAAGCAAGAUCAGUGCAGAGAAGCCACAUGACAUGUUGGGUGACAGAUUGGUCAUUUAUUUAAAUAAAGUUAAUACAGAUUAAAUUUGUUUCAAGAGCUAUUGUGGAAUUCUCGGGUGCCAA: 0.371
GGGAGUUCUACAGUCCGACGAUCUUCCCUGCCCCACCCCCUGGCCGCAGCAGGCCAGCACUGCAGAGUUUGGGUGCUGGUGGUGUGGCUGUAGGGGAGGGGAGACCACACCCAAGGUGGGGGCUGUGGCCAUGUGGAAUUCUCGGGUGCCAA: 0.895

Study 5 — method: protein-binding microarray; molecule type: double-stranded DNA, one strand shown; medium: in vitro; concentration: 250 nM; setting: 60-bp whole probe; added: salmon DNA 0.4 mg/ml; reference: random background probes; direction: higher = stronger binding; quantity: log fluorescence; shared flanks, not repeated: GCCTAGCAC … GTCTTGATTCGCTTGACGCTGCTG
Target: Interferon regulatory factor 7, full length, phosphomimetic (IRF7, Homo sapiens, UniProt Q92985, residues 1-503, S101K/S471D/S472D/S475D/S476D/S477D/S483D/S484D/S487D)
UniProt Q92985, sequence (whole entry, unmodified, looked up): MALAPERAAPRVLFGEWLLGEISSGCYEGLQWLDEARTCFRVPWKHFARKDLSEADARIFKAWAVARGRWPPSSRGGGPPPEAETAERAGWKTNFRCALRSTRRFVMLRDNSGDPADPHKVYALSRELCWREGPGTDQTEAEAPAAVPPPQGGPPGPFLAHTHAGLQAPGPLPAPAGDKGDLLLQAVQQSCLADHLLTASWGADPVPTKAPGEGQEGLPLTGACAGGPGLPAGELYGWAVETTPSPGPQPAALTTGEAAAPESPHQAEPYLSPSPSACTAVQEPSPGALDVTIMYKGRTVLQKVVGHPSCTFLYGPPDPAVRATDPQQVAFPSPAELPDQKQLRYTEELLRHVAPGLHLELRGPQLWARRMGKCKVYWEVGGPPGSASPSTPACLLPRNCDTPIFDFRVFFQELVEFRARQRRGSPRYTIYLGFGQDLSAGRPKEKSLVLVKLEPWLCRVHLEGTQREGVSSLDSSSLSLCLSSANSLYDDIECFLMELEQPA
GAAGAACTGAGTATCGAGACGTGCTAG: 0.00649 z-score
TCATGAGTCACTTCTGGTACTGTGCTA: -0.46 z-score
TCACATCTCAAGTAGCCTACTGTGCTA: 0.273 z-score
CTCATTTTCGTTTTGTGTCTGTGCTAG: 10.8 z-score
TTAGAAATGAGACTGGATTAGTGCTAG: -0.282 z-score
TTAGGTCTCGGTATCGGTGAGTGCTAG: 2.17 z-score
TTACGTTCCGGTTTCGGTTAGTGCTAG: 9.55 z-score
TAAGGTATCGGTCTCGGTTAGTGCTAG: 2.3 z-score
GACGGTCTCCATATCCTGACGTGCTAG: 0.351 z-score
TTAGGTTTCCTACTGCTTTTGTGCTAG: 0.912 z-score
GACGGTTCCGGTTTGGGGACGTGCTAG: 5.93 z-score
AGGCCTCTGGGATCCCAGTCGGTGCTA: -0.313 z-score
GACGGTTTCGACTATGGGGACGTGCTA: 4.63 z-score
TCATTTTTTTTTTCTACACTGTGCTAG: 1.12 z-score
GACGGAGTGGGACTGGGGACGTGCTAG: -0.618 z-score
TACAATTTGCTTTAGTCATTGTGCTAG: 0.0794 z-score
TTAGGTTCCTGTTTCGGTTAGTGCTAG: 6.92 z-score
TTAGATCTCAGTGTCGATTAGTGCTAG: -0.0472 z-score
ATGCATTGTTATTTGTCAATGTGCTAG: 0.531 z-score
GACGGACTGGGTCTGGGGACGTGCTAG: -0.599 z-score
TTAGGTTTCCTTATCCTGTAGTGCTAG: 2.81 z-score

A few entries again (study 5):
TCATGAGTCACTTCTGGTACTGTGCTA: -0.46 z-score
TTAGGTCTCGGTATCGGTGAGTGCTAG: 2.17 z-score
TTAGAAATGAGACTGGATTAGTGCTAG: -0.282 z-score
TCATTTTTTTTTTCTACACTGTGCTAG: 1.12 z-score
TTAGGTTTCCTTATCCTGTAGTGCTAG: 2.81 z-score
ATGCATTGTTATTTGTCAATGTGCTAG: 0.531 z-score
TAAGGTATCGGTCTCGGTTAGTGCTAG: 2.3 z-score
